Experimental data of several laboratories.
Every numbered part comes from another study and shows a few of its results, in no order. Substitutions count along the parent as printed.
Chain of UniProt O14920 (whole entry, looked up): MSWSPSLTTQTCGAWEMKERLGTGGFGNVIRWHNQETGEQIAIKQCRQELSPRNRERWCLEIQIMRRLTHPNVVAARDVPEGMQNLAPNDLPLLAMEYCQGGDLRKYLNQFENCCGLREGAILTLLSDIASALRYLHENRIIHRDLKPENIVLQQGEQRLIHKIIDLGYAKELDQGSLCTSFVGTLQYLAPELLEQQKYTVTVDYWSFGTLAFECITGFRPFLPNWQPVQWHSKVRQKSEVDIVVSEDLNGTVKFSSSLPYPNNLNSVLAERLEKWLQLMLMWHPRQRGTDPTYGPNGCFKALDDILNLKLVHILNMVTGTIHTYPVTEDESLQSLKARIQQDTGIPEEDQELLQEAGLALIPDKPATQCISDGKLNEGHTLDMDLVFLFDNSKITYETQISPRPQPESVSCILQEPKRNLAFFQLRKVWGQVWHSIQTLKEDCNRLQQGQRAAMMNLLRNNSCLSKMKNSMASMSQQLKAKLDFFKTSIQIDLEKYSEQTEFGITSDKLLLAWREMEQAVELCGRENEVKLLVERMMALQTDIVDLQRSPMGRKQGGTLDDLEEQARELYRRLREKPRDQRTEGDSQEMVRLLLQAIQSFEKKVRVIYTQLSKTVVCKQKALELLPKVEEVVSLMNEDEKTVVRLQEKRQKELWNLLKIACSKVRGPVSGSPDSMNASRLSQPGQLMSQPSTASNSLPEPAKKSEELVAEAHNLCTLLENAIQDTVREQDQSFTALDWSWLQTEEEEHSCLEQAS

Series 1 — target: tungstate, free oxyanion; technique: microfluidic competitive inhibition; sample: in vitro, cell-free expressed; tested at: not given; direction: lower = stronger binding
Setting: derived from inhibition constants, unchanged parent 2230 nM
Parent: PafA, mature enzyme, eGFP fusion (Elizabethkingia meningoseptica, UniProt Q9KJX5); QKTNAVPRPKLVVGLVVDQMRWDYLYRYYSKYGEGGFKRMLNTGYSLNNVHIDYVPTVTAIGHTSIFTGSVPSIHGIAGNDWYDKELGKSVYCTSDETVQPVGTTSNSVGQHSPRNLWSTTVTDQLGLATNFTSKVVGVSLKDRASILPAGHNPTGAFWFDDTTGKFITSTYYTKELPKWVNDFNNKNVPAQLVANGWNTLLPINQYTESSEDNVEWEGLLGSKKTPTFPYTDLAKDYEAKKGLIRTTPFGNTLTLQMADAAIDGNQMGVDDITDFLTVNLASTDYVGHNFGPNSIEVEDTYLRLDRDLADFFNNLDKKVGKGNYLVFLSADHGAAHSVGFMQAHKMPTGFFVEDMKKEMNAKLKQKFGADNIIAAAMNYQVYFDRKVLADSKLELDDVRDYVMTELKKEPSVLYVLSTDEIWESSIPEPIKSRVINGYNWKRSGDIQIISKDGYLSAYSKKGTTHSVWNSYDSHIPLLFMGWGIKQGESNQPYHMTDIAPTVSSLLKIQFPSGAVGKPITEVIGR
| Change | oxyanion analog dissociation constant |
| --- | --- |
| L507V | 2.23 µM |
| P512V | 2.78 µM |
| T208G | 2.08 µM |
| S211V | 2.23 µM |
| V468A | 1.57 µM |
| D260G | 2.18 µM |
| S70G | 1.83 µM |
| V12G | 2.09 µM |

Series 2 — observed: binding; technique: phage display NGS; molecule type: peptide; tested at: concentration not given; reference: input library
Target: UDP-N-acetylglucosamine--peptide N-acetylglucosaminyltransferase 110 kDa subunit (OGT, Homo sapiens, UniProt O15294)
Chain of UniProt O15294 (whole entry, looked up): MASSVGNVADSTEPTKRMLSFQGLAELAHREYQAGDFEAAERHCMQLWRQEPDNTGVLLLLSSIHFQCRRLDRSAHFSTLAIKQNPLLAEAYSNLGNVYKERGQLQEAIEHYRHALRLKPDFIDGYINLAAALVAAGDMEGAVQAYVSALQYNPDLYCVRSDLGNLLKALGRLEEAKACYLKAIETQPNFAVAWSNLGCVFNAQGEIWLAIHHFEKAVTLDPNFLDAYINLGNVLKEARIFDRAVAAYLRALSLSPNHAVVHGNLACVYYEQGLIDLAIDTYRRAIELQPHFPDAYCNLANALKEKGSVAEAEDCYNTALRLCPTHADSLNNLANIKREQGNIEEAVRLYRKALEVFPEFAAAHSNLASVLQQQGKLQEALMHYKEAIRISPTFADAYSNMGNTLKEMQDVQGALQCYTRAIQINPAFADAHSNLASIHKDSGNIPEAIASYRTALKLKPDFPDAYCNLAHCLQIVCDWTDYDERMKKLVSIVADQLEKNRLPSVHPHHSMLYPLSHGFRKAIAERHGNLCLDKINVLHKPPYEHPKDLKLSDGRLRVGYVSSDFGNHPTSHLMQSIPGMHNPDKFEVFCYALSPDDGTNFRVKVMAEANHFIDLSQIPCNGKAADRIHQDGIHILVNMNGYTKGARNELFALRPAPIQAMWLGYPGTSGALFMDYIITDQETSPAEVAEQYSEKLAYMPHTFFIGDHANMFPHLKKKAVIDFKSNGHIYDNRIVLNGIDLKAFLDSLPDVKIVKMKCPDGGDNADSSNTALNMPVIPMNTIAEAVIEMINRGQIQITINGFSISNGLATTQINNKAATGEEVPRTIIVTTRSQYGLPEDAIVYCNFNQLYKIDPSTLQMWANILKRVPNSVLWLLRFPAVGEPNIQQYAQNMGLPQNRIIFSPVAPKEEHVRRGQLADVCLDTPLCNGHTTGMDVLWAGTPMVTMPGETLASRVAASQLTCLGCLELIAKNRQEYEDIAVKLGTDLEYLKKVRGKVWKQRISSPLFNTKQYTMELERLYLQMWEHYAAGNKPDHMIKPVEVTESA
| Molecule | enrichment fold change |
| --- | --- |
| HLMHHRLEPDHAHQV | 14.2 |
| HTPMREHQQIHWHKF | 7.96 |
| YFTTPMYQIYYERA | 13.5 |
| DFVMPEYIIEYQIRS | 5.2 |
| HPMIDRHKHTPWNKH | 4.24 |
| HIQHYHHDIQYTRDL | 6.56 |
| QQYFLPMYQIQFRNM | 27.9 |
| HEFHRHHPPIDDLMR | 3.57 |

Series 3 — target: CCNA2, cyclin fold, Cln2 fusion (human); technique: yeast growth competition, sequencing; sample: yeast; setting: strong parent motif; reference: not given; direction: higher = stronger binding; parent: viral docking peptide; YKVKRRLVFGADD
| Change | normalised enrichment score |
| --- | --- |
| K4S | 5.8 |
| V3Y | 5.21 |
| D12R | 5.8 |
| K4N | 5.65 |
| K4G | 5.29 |
| V3Q | 1.97 |
| D12P | 6.13 |
| D12L | 6.02 |

Mixed results
| SMILES | target | observed | mode | tested at | reference | quantity | result |
| --- | --- | --- | --- | --- | --- | --- | --- |
| N/C(=N\[N+](=O)[O-])N/N=C\c1ccc(-c2cccc([N+](=O)[O-])c2)o1 | Inhibitor of nuclear factor kappa-B kinase subunit beta (IKBKB, Homo sapiens, UniProt O14920) | enzyme activity | inhibitor | 0.5 µM | control | remaining activity | 86% |

Excerpt of the above (series 2):
| Molecule | enrichment fold change |
| --- | --- |
| HPMIDRHKHTPWNKH | 4.24 |
| HIQHYHHDIQYTRDL | 6.56 |
| QQYFLPMYQIQFRNM | 27.9 |
